{"data": "Measured values of several laboratories", "Chymotrypsinogen A": "Chymotrypsinogen A (Bos taurus, UniProt P00766)", "SLC6A3": "Sodium-dependent dopamine transporter (SLC6A3, Homo sapiens, UniProt Q01959)", "ache": "Acetylcholinesterase (ache, Electrophorus electricus, UniProt O42275)", "SIGMAR1": "Sigma non-opioid intracellular receptor 1 (SIGMAR1, Homo sapiens, UniProt Q99720)", "OPRK1": "Kappa-type opioid receptor (OPRK1, Homo sapiens, UniProt P41145)", "note": "Protocols differ between the studies behind these lines. “And” joins repeats or separate records; there may be more than shown. ± marks the error that the study gave.", "chain of UniProt O42275 (whole entry, looked up)": "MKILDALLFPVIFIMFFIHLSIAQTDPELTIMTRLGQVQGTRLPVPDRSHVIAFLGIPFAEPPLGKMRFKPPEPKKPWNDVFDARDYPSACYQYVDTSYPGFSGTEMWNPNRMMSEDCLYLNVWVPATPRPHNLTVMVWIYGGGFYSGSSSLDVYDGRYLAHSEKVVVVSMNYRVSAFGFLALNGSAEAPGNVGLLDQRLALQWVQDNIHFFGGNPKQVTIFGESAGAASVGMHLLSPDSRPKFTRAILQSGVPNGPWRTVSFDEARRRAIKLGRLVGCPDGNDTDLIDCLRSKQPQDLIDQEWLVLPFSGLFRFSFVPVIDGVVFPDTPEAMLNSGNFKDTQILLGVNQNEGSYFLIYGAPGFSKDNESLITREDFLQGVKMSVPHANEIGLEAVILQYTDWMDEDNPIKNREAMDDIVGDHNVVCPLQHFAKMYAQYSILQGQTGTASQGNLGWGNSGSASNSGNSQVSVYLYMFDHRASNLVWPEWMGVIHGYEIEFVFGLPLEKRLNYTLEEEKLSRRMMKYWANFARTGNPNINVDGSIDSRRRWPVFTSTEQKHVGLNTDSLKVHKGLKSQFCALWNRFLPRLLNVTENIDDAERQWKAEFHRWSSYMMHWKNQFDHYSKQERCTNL", "chain of UniProt Q01959 (whole entry, looked up)": "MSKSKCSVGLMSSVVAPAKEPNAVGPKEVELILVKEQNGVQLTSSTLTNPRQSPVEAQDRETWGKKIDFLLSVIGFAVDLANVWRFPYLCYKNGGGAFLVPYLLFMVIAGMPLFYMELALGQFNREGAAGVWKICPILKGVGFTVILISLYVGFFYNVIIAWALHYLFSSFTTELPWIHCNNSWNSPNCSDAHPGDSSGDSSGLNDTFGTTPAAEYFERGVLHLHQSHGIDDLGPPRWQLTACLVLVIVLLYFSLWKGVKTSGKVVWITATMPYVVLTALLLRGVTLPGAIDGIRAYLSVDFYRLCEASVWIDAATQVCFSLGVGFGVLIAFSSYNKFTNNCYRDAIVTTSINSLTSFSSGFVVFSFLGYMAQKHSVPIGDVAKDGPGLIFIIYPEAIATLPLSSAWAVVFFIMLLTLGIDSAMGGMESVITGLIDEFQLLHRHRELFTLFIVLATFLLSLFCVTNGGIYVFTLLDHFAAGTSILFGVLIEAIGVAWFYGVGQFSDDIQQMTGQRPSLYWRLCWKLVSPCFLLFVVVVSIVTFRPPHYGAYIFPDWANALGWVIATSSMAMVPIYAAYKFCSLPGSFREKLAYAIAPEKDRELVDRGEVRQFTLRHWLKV", "chain of UniProt P41145 (whole entry, looked up)": "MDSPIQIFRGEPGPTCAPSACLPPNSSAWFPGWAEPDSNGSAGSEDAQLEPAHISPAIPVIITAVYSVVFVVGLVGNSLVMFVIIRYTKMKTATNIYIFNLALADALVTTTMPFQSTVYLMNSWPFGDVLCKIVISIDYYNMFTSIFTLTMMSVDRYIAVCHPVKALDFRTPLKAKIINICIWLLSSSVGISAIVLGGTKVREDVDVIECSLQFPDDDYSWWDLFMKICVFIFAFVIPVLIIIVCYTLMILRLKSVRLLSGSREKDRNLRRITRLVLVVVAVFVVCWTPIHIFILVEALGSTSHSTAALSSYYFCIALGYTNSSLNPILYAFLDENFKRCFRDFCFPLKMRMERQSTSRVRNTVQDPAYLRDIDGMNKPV", "chain of UniProt Q99720 (whole entry, looked up)": "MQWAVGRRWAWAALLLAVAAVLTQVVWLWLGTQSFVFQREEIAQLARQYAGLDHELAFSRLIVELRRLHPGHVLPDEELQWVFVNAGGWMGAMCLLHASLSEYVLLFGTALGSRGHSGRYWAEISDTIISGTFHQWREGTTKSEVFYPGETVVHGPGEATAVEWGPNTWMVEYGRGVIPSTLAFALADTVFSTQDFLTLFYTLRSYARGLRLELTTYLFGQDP", "chain of UniProt P35372 (whole entry, looked up)": "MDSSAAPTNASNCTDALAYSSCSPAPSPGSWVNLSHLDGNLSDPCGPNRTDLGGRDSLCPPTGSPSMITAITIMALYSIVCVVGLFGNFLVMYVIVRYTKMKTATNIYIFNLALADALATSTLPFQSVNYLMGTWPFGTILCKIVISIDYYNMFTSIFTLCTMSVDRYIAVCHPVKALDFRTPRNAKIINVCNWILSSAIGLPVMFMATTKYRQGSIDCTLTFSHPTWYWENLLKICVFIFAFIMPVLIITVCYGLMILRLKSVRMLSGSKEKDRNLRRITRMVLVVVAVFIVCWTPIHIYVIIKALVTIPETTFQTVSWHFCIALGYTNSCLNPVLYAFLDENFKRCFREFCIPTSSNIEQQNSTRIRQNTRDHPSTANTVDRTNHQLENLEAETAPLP", "chain of UniProt P21918 (whole entry, looked up)": "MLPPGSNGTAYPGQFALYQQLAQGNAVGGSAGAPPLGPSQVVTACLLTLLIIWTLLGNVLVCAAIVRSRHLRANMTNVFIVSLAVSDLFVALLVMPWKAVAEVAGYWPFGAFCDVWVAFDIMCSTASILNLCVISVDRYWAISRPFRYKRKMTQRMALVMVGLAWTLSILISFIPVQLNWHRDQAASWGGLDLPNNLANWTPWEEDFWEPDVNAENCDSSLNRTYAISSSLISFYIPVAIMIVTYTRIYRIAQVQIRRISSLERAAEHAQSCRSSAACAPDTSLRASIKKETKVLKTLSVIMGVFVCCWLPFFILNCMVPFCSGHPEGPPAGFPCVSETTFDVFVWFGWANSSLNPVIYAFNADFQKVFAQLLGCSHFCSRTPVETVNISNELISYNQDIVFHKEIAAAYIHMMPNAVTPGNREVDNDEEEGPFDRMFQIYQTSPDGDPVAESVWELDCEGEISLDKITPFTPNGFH", "chain of UniProt P23811 (whole entry, looked up)": "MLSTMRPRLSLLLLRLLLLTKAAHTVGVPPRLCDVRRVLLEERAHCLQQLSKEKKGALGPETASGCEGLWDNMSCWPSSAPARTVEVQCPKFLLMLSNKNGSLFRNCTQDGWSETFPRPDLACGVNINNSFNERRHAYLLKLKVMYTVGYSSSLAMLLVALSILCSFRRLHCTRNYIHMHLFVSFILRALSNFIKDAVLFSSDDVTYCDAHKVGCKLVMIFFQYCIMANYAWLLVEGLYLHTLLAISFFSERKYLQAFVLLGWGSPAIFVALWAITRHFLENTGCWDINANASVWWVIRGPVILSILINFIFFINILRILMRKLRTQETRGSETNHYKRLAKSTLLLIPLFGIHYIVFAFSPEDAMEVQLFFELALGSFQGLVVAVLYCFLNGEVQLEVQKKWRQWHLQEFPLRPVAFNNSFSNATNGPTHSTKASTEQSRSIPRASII", "chain of UniProt P34972 (whole entry, looked up)": "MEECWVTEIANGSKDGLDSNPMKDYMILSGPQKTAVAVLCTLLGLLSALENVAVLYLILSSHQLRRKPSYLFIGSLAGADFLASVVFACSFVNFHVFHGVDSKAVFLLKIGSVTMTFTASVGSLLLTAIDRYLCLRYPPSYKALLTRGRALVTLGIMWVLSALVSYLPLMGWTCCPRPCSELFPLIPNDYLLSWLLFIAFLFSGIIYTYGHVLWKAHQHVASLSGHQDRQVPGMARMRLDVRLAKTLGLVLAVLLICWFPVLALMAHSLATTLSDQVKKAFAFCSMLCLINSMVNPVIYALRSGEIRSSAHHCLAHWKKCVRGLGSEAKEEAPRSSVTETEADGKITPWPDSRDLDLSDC", "chain of UniProt P30518 (whole entry, looked up)": "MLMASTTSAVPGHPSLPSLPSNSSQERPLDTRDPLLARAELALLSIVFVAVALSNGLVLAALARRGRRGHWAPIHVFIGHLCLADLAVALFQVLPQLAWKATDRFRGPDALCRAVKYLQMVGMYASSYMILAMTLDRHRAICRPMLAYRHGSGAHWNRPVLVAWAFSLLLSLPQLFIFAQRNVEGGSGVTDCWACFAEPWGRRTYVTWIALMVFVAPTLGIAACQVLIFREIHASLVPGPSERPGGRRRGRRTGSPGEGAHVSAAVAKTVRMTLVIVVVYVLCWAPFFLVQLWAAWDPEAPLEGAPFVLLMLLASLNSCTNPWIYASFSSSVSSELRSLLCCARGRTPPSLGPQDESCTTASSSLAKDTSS", "chain of UniProt P41143 (whole entry, unmodified, looked up)": "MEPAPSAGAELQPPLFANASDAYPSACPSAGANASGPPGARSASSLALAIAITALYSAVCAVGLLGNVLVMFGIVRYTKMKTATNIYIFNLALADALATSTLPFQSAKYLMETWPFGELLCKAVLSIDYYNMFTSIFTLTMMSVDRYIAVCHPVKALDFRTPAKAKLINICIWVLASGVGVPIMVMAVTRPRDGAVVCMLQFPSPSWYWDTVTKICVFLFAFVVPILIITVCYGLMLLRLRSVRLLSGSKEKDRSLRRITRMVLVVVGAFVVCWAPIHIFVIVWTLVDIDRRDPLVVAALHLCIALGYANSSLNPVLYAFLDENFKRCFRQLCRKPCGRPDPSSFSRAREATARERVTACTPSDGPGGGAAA", "chain of UniProt Q86X55 (whole entry, looked up)": "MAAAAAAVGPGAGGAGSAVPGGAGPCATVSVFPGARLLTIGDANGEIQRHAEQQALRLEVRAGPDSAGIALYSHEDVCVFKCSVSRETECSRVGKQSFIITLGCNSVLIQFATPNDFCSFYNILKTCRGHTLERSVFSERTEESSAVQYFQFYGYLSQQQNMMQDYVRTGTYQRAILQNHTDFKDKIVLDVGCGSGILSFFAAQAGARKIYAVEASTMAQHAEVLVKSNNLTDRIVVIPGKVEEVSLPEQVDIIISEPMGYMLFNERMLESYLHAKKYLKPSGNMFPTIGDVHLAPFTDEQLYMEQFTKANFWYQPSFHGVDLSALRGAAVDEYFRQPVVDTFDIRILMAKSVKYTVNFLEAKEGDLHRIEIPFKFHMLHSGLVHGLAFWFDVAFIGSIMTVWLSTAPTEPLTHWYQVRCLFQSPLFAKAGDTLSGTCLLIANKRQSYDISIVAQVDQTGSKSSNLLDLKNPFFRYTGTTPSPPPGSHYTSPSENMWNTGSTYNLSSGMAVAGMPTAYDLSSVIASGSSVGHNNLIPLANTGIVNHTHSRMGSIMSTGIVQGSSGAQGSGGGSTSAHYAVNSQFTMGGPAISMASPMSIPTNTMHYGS"}
{"SMILES": "CC(C)[C@@H]1NC(=O)[C@H](Cc2ccccc2)NC(=O)[C@H](Cc2ccc(O)cc2)NC(=O)CCSSCCC(=O)N[C@@H](Cc2ccc(O)cc2)C(=O)N[C@@H](Cc2ccccc2)C(=O)N[C@@H](C(C)C)C(=O)N[C@@H](CC(N)=O)C(=O)N[C@H](C(=O)N2CCC[C@H]2C(=O)N[C@H](CCCNC(=N)N)C(=O)NCC(N)=O)CSSC[C@@H](C(=O)N2CCC[C@H]2C(=O)N[C@H](CCCNC(=N)N)C(=O)NCC(N)=O)NC(=O)[C@H](CC(N)=O)NC1=O", "target": "Vasopressin V2 receptor (AVPR2, Homo sapiens, UniProt P30518)", "test": "ligand displacement, radioligand", "setting": "cell membranes", "Ki": "0.0042 µM"}
{"SMILES": "O=C(Cc1ccc(Cl)c(Cl)c1)N1CCN[C@@H]2COC[C@H](N3CCCC3)[C@H]21", "target": "Mu-type opioid receptor (OPRM1, Homo sapiens, UniProt P35372)", "test": "binding, radioligand displacement", "test system": "CHO cell membranes", "setting": "with: [3H]DAMGO", "Ki": "> 10 µM"}
{"SMILES": "Cc1cc(O)cc(C)c1C[C@H](N)C(=O)N[C@H](CCCNC(=N)N)C(=O)N[C@@H](Cc1ccccc1)C(=O)N(C)CC(=O)N(C)Cc1cc(C(F)(F)F)cc(C(F)(F)F)c1", "target": "Delta-type opioid receptor (OPRD1, Homo sapiens, UniProt P41143, A309I)", "Ki": "0.00553 ± 0.00059 µM"}
{"SMILES": "CC(C)C[C@H](NC(=O)CNC(=O)[C@H](CCC(N)=O)NC(=O)[C@H](CC(C)C)NC(=O)[C@H](CC(C)C)NC(=O)[C@H](CCCNC(=N)N)NC(=O)[C@H](CCC(N)=O)NC(=O)[C@H](CC(C)C)NC(=O)[C@H](CCCNC(=N)N)NC(=O)[C@H](C)NC(=O)[C@H](CO)NC(=O)[C@H](CC(=O)O)NC(=O)[C@H](CCC(N)=O)NC(=O)[C@H](CC(C)C)NC(=O)[C@H](CCCNC(=N)N)NC(=O)[C@H](CO)NC(=O)[C@H](Cc1ccc(O)cc1)NC(=O)[C@H](CCC(=O)O)NC(=O)[C@H](CO)NC(=O)[C@@H](NC(=O)[C@H](Cc1ccccc1)NC(=O)[C@@H](NC(=O)[C@H](Cc1ccc(C(=O)c2ccccc2)cc1)NC(=O)[C@H](CC(=O)O)NC(=O)[C@H](CO)NC(=O)[C@@H](N)Cc1c[nH]cn1)[C@@H](C)O)[C@@H](C)O)C(=O)N[C@H](C(N)=O)C(C)C", "target": "Sctr (Rattus norvegicus, UniProt P23811)", "test": "ligand displacement in cells, radioligand", "Ki": "> 1 µM"}
{"SMILES": "Cc1ccc(/N=N/c2cccc([B-](F)(F)F)c2)cc1", "target": "Chymotrypsinogen A", "test": "enzyme activity, inhibitor", "setting": "pH 7.81, 25 °C, cis-enriched photostationary state, with: Suc-AAPF-AMC", "Ki": "35.8 µM"}
{"SMILES": "COC(=O)[C@H]1[C@@H](c2ccc(Cl)c(Cl)c2)C[C@@H]2CC[C@H]1N2CCCc1c2ccccc2cc2ccccc12", "target": "SLC6A3", "test": "ligand displacement, radioligand", "setting": "pH 7.4", "Ki": "0.053 µM"}
{"SMILES": "CC(=O)NCCCC[C@H](NC(=O)[C@H](CCCNC(=N)NCCC[C@H]1O[C@@H](n2cnc3c(N)ncnc32)[C@H](O)[C@@H]1O)NC(=O)[C@@H]1CCCN1C(=O)[C@H](C)NC(C)=O)C(=O)N[C@@H](CCC(N)=O)C(=O)N[C@@H](CC(C)C)C(N)=O (relative stereo)", "target": "Histone-arginine methyltransferase CARM1 (CARM1, Homo sapiens, UniProt Q86X55)", "test": "enzyme activity, inhibitor", "Ki": "0.001 µM"}
{"SMILES": "Cc1ccc(/N=N/c2ccc(C)c([B-](F)(F)F)c2)cc1", "target": "Chymotrypsinogen A", "test": "enzyme activity, competitive inhibitor", "test system": "buffer with 2 vol% DMSO", "setting": "pH 7.81, 25 °C, thermally adapted trans state, with: Suc-AAPF-AMC", "Ki": "200 µM"}
{"SMILES": "COC(=O)[C@H]1[C@@H](c2ccc(Cl)c(Cl)c2)C[C@@H]2CC[C@H]1N2Cc1c2ccccc2cc2ccccc12", "target": "SLC6A3", "test": "ligand displacement, radioligand", "setting": "pH 7.4", "Ki": "0.62 µM"}
{"SMILES": "O=C1c2ccccc2CCCN1CCCCN1CCN(c2cccc(Cl)c2Cl)CC1", "target": "D(1B) dopamine receptor (DRD5, Homo sapiens, UniProt P21918)", "test": "ligand displacement, radioligand", "Ki": "3.58 µM"}
{"SMILES": "O=S(=O)(N/N=C/c1ccc(OS(=O)(=O)c2ccc(Br)cc2)cc1)c1cc(Cl)ccc1Cl", "target": "ache", "test": "enzyme activity, inhibitor, Ellman", "Ki": "0.0313 µM"}
{"SMILES": "C[C@@H](Cc1ccsc1)NC(=O)NC[C@H](Cc1ccc(O)cc1)N(C)C", "target": "Beta-2 adrenergic receptor (ADRB2, Homo sapiens, UniProt P07550)", "test": "cell-free assay", "Ki": "> 50 µM"}
{"SMILES": "CC(C)[C@H]1NC(=O)[C@H](CO)NC(=O)[C@H](CCC(N)=O)NC(=O)[C@H](Cc2ccccc2)NC(=O)[C@H](Cc2ccc3ccccc3c2)NC(=O)[C@H](CCCNC(=N)N)NC(=O)[C@H](CCCNC(=N)N)NC(=O)[C@H](CCCNC(=N)N)NC(=O)[C@H](CCCNC(=N)N)NC(=O)[C@H](Cc2c[nH]cn2)NC(=O)[C@H](Cc2ccc(C(F)(F)P(=O)(O)O)cc2)NC(=O)[C@@H]2CCCN2C1=O", "target": "Tyrosine-protein phosphatase non-receptor type 1 (PTPN1, Homo sapiens, UniProt P18031)", "test": "enzyme activity, inhibitor, absorbance", "Ki": "0.054 µM"}
{"SMILES": "COc1cccc(COc2ccc3c(c2)[C@H]2CCN[C@@]2(C)CO3)c1", "target": "SIGMAR1", "test": "cell-free assay, radioligand", "Ki": "0.0037 µM"}
{"SMILES": "O=S(=O)(N/N=C/c1ccc(OS(=O)(=O)c2ccccc2)cc1)c1cc(Cl)ccc1Cl", "target": "ache", "test": "enzyme activity, inhibitor, Ellman", "Ki": "0.0101 µM"}
{"SMILES": "COc1ccccc1/N=N/c1cccc([B-](F)(F)F)c1", "target": "Chymotrypsinogen A", "test": "enzyme activity, competitive inhibitor", "test system": "buffer with 2 vol% DMSO", "setting": "pH 7.81, 25 °C, thermally adapted trans state, with: Suc-AAPF-AMC", "Ki": "49.9 µM"}
{"SMILES": "CCCCCn1ccc(C(=O)NC(C)(C)c2ccc(CNC(C)=O)cc2)n1", "target": "Cannabinoid receptor 2 (CNR2, Homo sapiens, UniProt P34972)", "test": "ligand displacement, radioligand", "Ki": "1.63 µM"}
{"SMILES": "CCCCc1ccc(/N=N/c2cccc([B-](F)(F)F)c2)cc1", "target": "Chymotrypsinogen A", "test": "enzyme activity, inhibitor", "setting": "pH 7.81, 25 °C, cis-enriched photostationary state, with: Suc-AAPF-AMC", "Ki": "> 2000 µM"}
{"SMILES": "O=C(Cc1ccc(F)c(Cl)c1)N1CCN[C@@H]2COC[C@H](N3CCCC3)[C@H]21 (relative stereo)", "target": "OPRK1", "test": "cell-free assay", "Ki": "0.18 µM"}
{"SMILES": "CC(=O)c1ccc(/N=N/c2cccc([B-](F)(F)F)c2)cc1", "target": "Chymotrypsinogen A", "test": "enzyme activity, inhibitor", "setting": "pH 7.81, 25 °C, cis-enriched photostationary state, with: Suc-AAPF-AMC", "Ki": "292 µM"}
{"SMILES": "CC(C)C[C@H](NC(=O)[C@H](CCCCN)NC(=O)[C@H](CCCCN)NC(=O)Cc1cccc(CNC(=O)[C@@H](C)NC(=N)N)c1)B(O)O", "target": "Chymotrypsinogen A", "test": "enzyme activity, inhibitor, fluorescence", "Ki": "0.1 µM"}
{"SMILES": "N[C@H]1CCSC1=O", "target": "Carbonic anhydrase 9 (CA9, Homo sapiens, UniProt Q16790)", "test": "CO2 hydration activity, inhibitor, stopped-flow CO2 hydration", "setting": "room temperature preincubation", "Ki": "> 100 µM"}
{"SMILES": "F[B-](F)(F)c1cccc(/N=N/c2ccccc2I)c1", "target": "Chymotrypsinogen A", "test": "enzyme activity, inhibitor", "setting": "pH 7.81, 25 °C, cis-enriched photostationary state, with: Suc-AAPF-AMC", "Ki": "133 µM"}
{"SMILES": "C[C@@H](NC(=O)[C@@H](N)Cc1ccc(O)cc1)C(=O)NCC(=O)N[C@@H](Cc1ccccc1)C(=O)N[C@H](CCCNC(=N)N)C(=O)N[C@@H](CCCNC(=N)N)C(=O)N1CCC[C@H]1C(=O)N1C[C@H](O)C[C@H]1C(=O)NCC(=O)N[C@@H](Cc1cccs1)C(=O)N[C@@H](CO)C(=O)N1Cc2ccccc2C[C@@H]1C(=O)N1[C@H](C(=O)N[C@@H](CCCNC(=N)N)C(=O)O)C[C@@H]2CCCC[C@@H]21", "target": "bradykinin B2 receptor (rat)", "test system": "rat brain membranes", "setting": "with: [3H]bradykinin", "Ki": "> 10 µM"}
{"SMILES": "Cc1cc(C)cc(/N=N/c2cccc([B-](F)(F)F)c2)c1", "target": "Chymotrypsinogen A", "test": "enzyme activity, inhibitor", "setting": "pH 7.81, 25 °C, cis-enriched photostationary state, with: Suc-AAPF-AMC", "Ki": "199 µM and 200 µM"}
{"SMILES": "O=S(=O)(N/N=C/c1ccc(OS(=O)(=O)c2ccc(Cl)cc2)cc1)c1cc(Cl)ccc1Cl", "target": "ache", "test": "enzyme activity, inhibitor, Ellman", "Ki": "0.0317 µM"}
{"SMILES": "C[C@]12COc3ccc(OCc4ccccc4Cl)cc3[C@H]1CCN2", "target": "SIGMAR1", "test": "cell-free assay, radioligand", "Ki": "0.0014 µM"}
{"SMILES": "CN(C)[C@H](CNC(=O)/C=C/c1cccc2ccccc12)Cc1ccc(O)cc1", "target": "OPRK1", "test": "cell-free assay", "Ki": "0.19 µM"}
{"SMILES": "COC(=O)[C@H]1[C@@H](c2ccc(Cl)cc2)C[C@@H]2CC[C@H]1N2CCCc1ccc2cc3ccccc3cc2c1", "target": "SLC6A3", "test": "binding", "test system": "COS-7 cells transfected", "setting": "with: [3H]WIN35,428", "scale": "deprotonated form", "Ki": "4.8e-05 µM"}
{"SMILES": "CCCCCn1c2ccccc2c2cc(C(=O)N3CCN(C(=O)OC(C)(C)C)CC3)ccc21", "target": "Cannabinoid receptor 1 (Cnr1, Rattus norvegicus, UniProt P20272)", "test": "ligand displacement, radioligand", "Ki": "> 5 µM"}
{"SMILES": "F[B-](F)(F)c1cccc(/N=N/c2ccccc2)c1", "target": "Chymotrypsinogen A", "test": "enzyme activity, competitive inhibitor", "test system": "buffer with 2 vol% DMSO", "setting": "pH 7.81, 25 °C, thermally adapted trans state, with: Suc-AAPF-AMC", "Ki": "3.06 µM and 3.1 µM"}
{"SMILES": "CCOC(=O)C(CC)(CC)NC(=O)c1ccc(C2CC2)c(Cc2ccc(F)cc2)n1", "target": "Cannabinoid receptor 1 (Cnr1, Mus musculus, UniProt P47746)", "test": "ligand displacement, radioligand", "setting": "cell membranes", "Ki": "0.0085 µM"}
{"SMILES": "COC(=O)[C@H]1[C@@H](c2ccc(Cl)c(Cl)c2)C[C@@H]2CC[C@H]1N2Cc1ccc2cc3ccccc3cc2c1", "target": "SLC6A3", "test": "ligand displacement, radioligand", "setting": "pH 7.4", "Ki": "0.21 µM"}
{"SMILES": "COc1cc2c(cc1O)C(CCc1ccc(Cl)cc1)N(C)CC2 (stereo not shown)", "target": "D(1A) dopamine receptor (DRD1, Homo sapiens, UniProt P21728)", "test": "cell-free assay, radioligand", "Ki": "0.27 µM"}
{"note": "Repeated from above:"}
{"SMILES": "COc1cc2c(cc1O)C(CCc1ccc(Cl)cc1)N(C)CC2 (stereo not shown)", "target": "D(1A) dopamine receptor (DRD1, Homo sapiens, UniProt P21728)", "test": "cell-free assay, radioligand", "Ki": "0.27 µM"}
{"SMILES": "CC(C)C[C@H](NC(=O)CNC(=O)[C@H](CCC(N)=O)NC(=O)[C@H](CC(C)C)NC(=O)[C@H](CC(C)C)NC(=O)[C@H](CCCNC(=N)N)NC(=O)[C@H](CCC(N)=O)NC(=O)[C@H](CC(C)C)NC(=O)[C@H](CCCNC(=N)N)NC(=O)[C@H](C)NC(=O)[C@H](CO)NC(=O)[C@H](CC(=O)O)NC(=O)[C@H](CCC(N)=O)NC(=O)[C@H](CC(C)C)NC(=O)[C@H](CCCNC(=N)N)NC(=O)[C@H](CO)NC(=O)[C@H](Cc1ccc(O)cc1)NC(=O)[C@H](CCC(=O)O)NC(=O)[C@H](CO)NC(=O)[C@@H](NC(=O)[C@H](Cc1ccccc1)NC(=O)[C@@H](NC(=O)[C@H](Cc1ccc(C(=O)c2ccccc2)cc1)NC(=O)[C@H](CC(=O)O)NC(=O)[C@H](CO)NC(=O)[C@@H](N)Cc1c[nH]cn1)[C@@H](C)O)[C@@H](C)O)C(=O)N[C@H](C(N)=O)C(C)C", "target": "Sctr (Rattus norvegicus, UniProt P23811)", "test": "ligand displacement in cells, radioligand", "Ki": "> 1 µM"}
{"SMILES": "CC(C)C[C@H](NC(=O)[C@H](CCCCN)NC(=O)[C@H](CCCCN)NC(=O)Cc1cccc(CNC(=O)[C@@H](C)NC(=N)N)c1)B(O)O", "target": "Chymotrypsinogen A", "test": "enzyme activity, inhibitor, fluorescence", "Ki": "0.1 µM"}
